Results collected from several papers.
Compare with care: the assays were run in different laboratories. ± gives the spread as reported.
USP13 ZnF-UBD domain: Ubiquitin carboxyl-terminal hydrolase 13, ZnF-UBD domain (USP13, Homo sapiens, UniProt Q92995)
Chain of UniProt Q92995 (whole entry, looked up): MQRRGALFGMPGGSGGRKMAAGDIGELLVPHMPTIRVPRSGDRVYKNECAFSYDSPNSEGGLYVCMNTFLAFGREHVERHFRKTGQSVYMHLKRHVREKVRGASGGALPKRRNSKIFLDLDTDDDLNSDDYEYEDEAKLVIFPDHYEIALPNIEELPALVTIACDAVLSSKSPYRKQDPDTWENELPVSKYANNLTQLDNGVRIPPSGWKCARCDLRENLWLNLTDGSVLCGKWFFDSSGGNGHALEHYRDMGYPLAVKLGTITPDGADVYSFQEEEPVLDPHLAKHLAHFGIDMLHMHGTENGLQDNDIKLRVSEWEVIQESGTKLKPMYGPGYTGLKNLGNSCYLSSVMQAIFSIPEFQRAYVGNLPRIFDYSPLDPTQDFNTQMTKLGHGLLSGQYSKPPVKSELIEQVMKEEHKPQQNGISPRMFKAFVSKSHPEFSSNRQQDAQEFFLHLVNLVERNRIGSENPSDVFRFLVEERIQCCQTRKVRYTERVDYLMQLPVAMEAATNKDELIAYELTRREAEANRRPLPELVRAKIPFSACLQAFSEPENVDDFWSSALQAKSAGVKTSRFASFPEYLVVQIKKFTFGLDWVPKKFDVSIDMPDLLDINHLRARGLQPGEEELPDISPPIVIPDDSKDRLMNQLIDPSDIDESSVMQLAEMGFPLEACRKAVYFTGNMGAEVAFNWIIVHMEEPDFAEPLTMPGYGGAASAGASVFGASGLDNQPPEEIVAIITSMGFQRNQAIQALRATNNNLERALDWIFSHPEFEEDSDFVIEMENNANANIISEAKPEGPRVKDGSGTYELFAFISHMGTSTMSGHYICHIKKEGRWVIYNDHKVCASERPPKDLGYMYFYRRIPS

COc1ccc([C@@H](O)c2cc(-c3ncnc4cc(N5CCOCC5)ccc34)c(F)cc2Cl)nn1 — rectal haemorrhage TEAE (locally advanced rectal cancer; oral, 50 mg, with: capecitabine and radiotherapy): 0%
Cc1c(C(=O)O)ccc2c3n(nc12)[C@@H]1[C@H](C3)N(CC2CC2)[C@@]2(C(=O)Nc3cc(Cl)ccc32)[C@H]1c1cccc(Cl)c1F — adverse event incidence (phase Ia trial, refers to: Neutropenia; cancer patients; oral, dose not given, all patients all grades): 31.5%
C=CC(=O)Nc1cc(Nc2nccc(-c3cn(C)c4ccccc34)n2)c(OC)cc1N(C)CCN(C)C — recovery (storage stability; human plasma; 10 d, on ice, MQC level): 69.9%
CCOc1c([C@H](C)n2nc(C)c3c(N)ncnc32)cc(Cl)c(F)c1[C@@H]1CNC(=O)C1 — ECG observations (refers to: QTcF change ≤30 ms; previously treated B-cell malignancy; oral, 15 mg once daily, baseline QTcF ≤450 ms; relative to: baseline): 100%
CNCCOC12CC3(C)CC(C)(CC(Cn4ncc(-c5ccc(N6CCc7cccc(C(=O)Nc8nc9ccccc9s8)c7C6)nc5C(=O)O)c4C)(C3)C1)C2 — QRS duration change (beagle dog, male, anaesthetised; intravenous bolus, 0.03 mg/kg, 45 min; relative to: baseline): -1 ms
CCOC(=O)N1C[C@@H](c2ccc(C(F)(F)F)cc2)N[C@@H](C(CC)CC)C1 — solubility (shake-flask, LC-HRMS; aqueous buffer; 16 h, pH 6.8): < 4 µM
O=C(O)CCC(=O)O.[2H]C([2H])([2H])Oc1cc(C)c2[nH]ccc2c1CN1CC[C@@H](C2CC2)C[C@H]1c1ccc(C(=O)O)cc1 — subjects with TEAE Eczema (multiple ascending dose; healthy Chinese subjects; 125 mg twice daily): 0%
O=C(COc1ccc(Cl)cc1)NC12CC(c3nnc([C@H]4C[C@@H](OC(F)(F)F)C4)o3)(C1)C2 — adverse event incidence (refers to: Presyncope; human; 100 mg once daily, 28 (unit not given)): 10%
O=c1[nH]c(=O)n([C@H]2C[C@H](O)[C@@H](CO)O2)cc1CCCC[18F] — biodistribution (male CD-1 nu/nu mice, RG2 tumour, muscle; intravenous, dose not given, 2 h): 0.35 ± 0.13 %ID/g
Cc1cc(-c2nnc(N)nc2-c2ccc(F)cc2)cc(Cl)n1 — incidence of AE, immune-mediated, treatment-related (refers to: rash, all grades; post-IO NSCLC patients; oral, 100 mg once daily): 5.9%
C[C@H]1O[C@@H](O[C@H]2[C@@H](O)C[C@H](O[C@H]3[C@@H](O)C[C@H](O[C@H]4CC[C@@]5(C)[C@H](CC[C@@H]6[C@@H]5C[C@@H](O)[C@]5(C)[C@@H](C7=CC(=O)OC7)CC[C@]65O)C4)O[C@@H]3C)O[C@@H]2C)C[C@H](O)[C@@H]1O — subjects with adverse event (refers to: nervous system disorders; healthy men; oral, dose not given, 8 days, treatment-emergent, crossover trial): 4.5%
Cc1cc(NC2CCN(C(=O)OC3CCN(C(=O)/C=C/CN(C)C)C3)CC2)n2ncc(C(C)C)c2n1 (centres unmarked) — patients with adverse event (Phase I dose escalation CTCAE v4.0, refers to: abdominal distension; patients with advanced solid tumours; dose not given, QD dosing any grade): 9%
COc1ccc2c(=O)n(C)c(-c3ccccc3)nc2c1 — tissue/plasma ratio (Sprague-Dawley rat, male, spleen; oral, 30 mg/kg, 4 h; relative to: spleen over plasma): 10.2
CC(C)(C)c1ccc([C@H]2COC[C@@H](c3ccc(C#N)cc3)N2)cc1 — solubility (shake-flask, LC-HRMS; aqueous buffer; 16 h, pH 6.8): < 4 µM
CNC(=O)c1cc(Oc2ccc(NC(=O)Nc3cc(C(C)(C)C)nn3-c3ccc4ncccc4c3)c(F)c2)ccn1 — patients with adverse events (refers to: musculoskeletal disorders, all grades; human patients; oral, dose not given, high Cmax subgroup, cycles 1-2): 56%
O=c1[nH]c(=O)n([C@@H]2O[C@H](CO)[C@@H](O)[C@@H]2F)cc1CCCCC[18F] — biodistribution (nude mice, RG2 tumour, heart; intravenous, dose not given, 2 h): 0.07 ± 0.04 %ID/g
C=CC(=O)N1CCC[C@@H](n2c(=O)n(-c3ccc(Oc4ccccc4)cc3)c3c(N)nccc32)C1 — Cmax fed/fasted ratio (human; oral, 60 mg; relative to: fed over fasted): 1.17
COc1ccc([C@@H]2COC[C@H](c3cccc(Br)c3)N2)cc1 — solubility (shake-flask, LC-HRMS; aqueous buffer; 16 h, pH 6.8): < 4 µM
N#Cc1ccc2c(c1)[C@H]1CCCN(C(=O)c3ccc4[nH]cnc4c3)[C@H]1C2 — total testosterone level (human females; 160 mg, day 7): 0.8 nmol/L
CNc1cc[n+](CCNC(=O)c2ccn3c(-c4c(C)noc4C)cnc3c2)cc1.[Cl-] — total organic impurities (0.1 M HCl; 1 weeks, pH 1, room temperature): 0 % peak area
C[Si](C)(C)O[Si](C)(C)O[Si](C)(C)C — log KAW (regression; 25 °C): 3.07
Cc1ccc(Sc2ccccc2N2CCNCC2)c(C)c1 — participants with TEAE (refers to: Nausea; healthy adult men; oral, 5 mg daily, 12 days): 0%
Cn1cc(-c2ccc(-c3cncc(Cl)c3N3CCC4(CCNC4=O)CC3)cc2)cn1 — log2 fold change (COLO 205; gene expression, microarray, refers to: TLE2 mRNA; concentration not given, 6 h; relative to: untreated cells): 2.06
CCOC(=O)N1C[C@@H](c2ccc(C(C)=O)cc2)N[C@@H](C(C)(C)C)C1 — solubility (shake-flask, LC-HRMS; aqueous buffer; 16 h, pH 6.8): < 4 µM
COc1cc2nccc(Oc3ccc(NC(=O)c4cc5c(n(-c6ccccc6)c4=O)CCCC5=O)nc3)c2cc1OC — drug-related TEAEs leading to interruption (patients with relapsed/refractory AML; oral, 6 mg once daily): 0%
Brc1cccc([C@H]2COC[C@@H](C3CCCCC3)N2)c1 — solubility (shake-flask, LC-HRMS; aqueous buffer; 16 h, pH 6.8): < 4 µM
CCN1CCN(Cc2ccc(NC(=O)c3ccc(C)c(NC(=O)c4cncc(-c5cccs5)c4)c3)cc2C(F)(F)F)CC1 — apparent volume of distribution (C57BL/6 mice, epithelial lining fluid; intraperitoneal, 10 mg/kg): 6.47 L/kg
CC(C)C[C@H](NC(=O)C[C@H](O)[C@H](CC(C)C)NC(=O)[C@H](Cc1c[nH]cn1)NC(=O)CNC(=O)[C@@H](NC(=O)[C@H](C)NC(=O)[C@H](Cc1c[nH]c2ccccc12)NC(=O)[C@H](CCC(N)=O)NC(=O)[C@@H](Cc1ccccc1)NC(=O)COCCOCCNC(=O)CCC(C(=O)O)N1CCN(CC(=O)O)CCN(CC(=O)O)CCN(CC(=O)O)CC1)C(C)C)C(N)=O (some centres unmarked) [lutetium-177 labelled] — tissue uptake (female BALB/c nu/nu mice, intestines; intravenous, 50 pmol, 1 h): 1.4 ± 0.5 %ID/g
CNC(=O)c1ccc(-c2cnc3ncc(Cc4ccc5ncccc5c4)n3n2)cc1F — patients with adverse event (refers to: Insomnia, all grades; hepatocellular carcinoma patients; oral, 600 mg twice daily, expansion cohort, any causality): 0%
CCCCC1=NC2(CCCC2)C(=O)N1Cc1ccc(-c2ccccc2S(=O)(=O)Nc2noc(C)c2C)c(COCC)c1 — Tmax (healthy adult volunteers, plasma; oral, 50 mg, single dose, fed, crushed tablet): 4.24 h
Cn1cnc2ccc(Nc3c(F)ccc(NS(=O)(=O)N4CC(F)C4)c3Cl)c(Cl)c2c1=O — patients with fatigue (refers to: fatigue any grade; human patients; dose not given, monotherapy trial; relative to: patients): 8%
NC1(C(=O)N[C@@H](CCO)c2ccc(Cl)cc2)CCN(c2nc[nH]c3nccc2-3)CC1 — incidence of Arthralgia (metastatic CRPC patients; dose not given, any grade, treatment-related, all doses, with: enzalutamide 160 mg daily): 6.7%
Cl.[2H]C([2H])([2H])CC(=O)c1cnc(NC(=O)C2CC2)cc1Nc1cccc(-c2ncn(C([2H])([2H])[2H])n2)c1OC — AUC(0-tau) (geometric mean; human; oral, 20 mg twice daily, day 1, fed, liquid, multiple dose): 0.911 µg·h/mL
CCn1c(SCC(=O)Nc2ccccc2OC)nnc1-c1c[nH]c2ccccc12 — solubility (aqueous buffer; pH 7.4): < 0.00218 mg/mL
CCCC1CCC(c2ccc(-c3ccc(F)c(F)c3)cc2)CC1 (centres unmarked) — placental accumulation (Sprague-Dawley rat, female, placenta; 1000 ng/mL in perfusate, 50 (unit not given), middle dose, mixture of 21 LCMs): 13.5 ± 17.6 ng/g
Cc1ccc([C@@H]2O[C@H](CO)[C@@H](O)[C@H](O)[C@H]2O)cc1Cc1ccc(-c2ccc(F)cc2)s1 — urinary calcium excretion change (Japanese type 2 diabetes patients; 400 mg, day 17, 24 h urine collection; relative to: baseline): 2.85 mg
C=CC(=O)NC1CCN(c2ncc3ncnc(Nc4ccc(Oc5ccc6c(c5)ncn6C)c(C)c4)c3n2)CC1 — participants with grade 2 pain (human, male; oral, 240 mg, treatment-emergent adverse event): 6.3%
COc1cc2oc(=O)cc(C)c2cc1CCC(=O)O — Kd (USP13 ZnF-UBD domain): 867 µM
O=C(Nc1nc2cccc(-c3ccc(CN4CCS(=O)(=O)CC4)cc3)n2n1)C1CC1 — treatment-emergent adverse events (refers to: blood calcium increased; rheumatoid arthritis patients; oral, 300 mg once daily, 4 weeks, any relatedness): 0%
COc1ccc2c(c1)CN(C(=O)CCN1CCC(Cc3ccccc3)CC1)CC[S@@+]2[O-] — QRS duration (telemetry; conscious male beagle dogs; intravenous, 8 mg/kg, 2 h): 34 ± 10 ms
Cc1cccc(CNC(=O)c2cn(CCNC(=O)c3ccccc3Sc3c([N+](=O)[O-])ncn3C)c3cc4c(cc3c2=O)OC(F)(F)O4)n1 — MRT(0-inf) (Sprague-Dawley rat, male, whole blood; intramuscular, 3 mg/kg of parent drug): 3.27 h
CN[C@@H](C)C(=O)N[C@H]1CN(C(=O)CC(C)C)CC[C@H]2CC[C@@H](C(=O)NC(c3ccccc3)c3ccccc3)N2C1=O — renal clearance (unchanged drug recovered; SCID mice, MDA-MB-231 xenograft, urine; oral): 0.128 mL/min
CC(=O)Nc1ccc([C@H]2COC[C@H](c3ccc(C(C)(C)C)cc3)N2)cc1 — solubility (shake-flask, LC-HRMS; aqueous buffer; 16 h, pH 6.8): < 4 µM
C=CCN1CC(=O)N2[C@@H](Cc3ccc(O)cc3F)C(=O)N(Cc3cccc(N4CC(N5CCN(CC)CC5)C4)n3)C[C@@H]2N1C(=O)NCc1ccccc1 — treatment-related nausea (advanced solid tumour patients; oral, 120 mg twice daily, any grade, dose-escalation): 87.5%
COC(=O)Nc1ccc2nc(C(=N)N)ccc2c1 — solubility (aqueous buffer; pH 7.4): 0.0789 mg/mL
CCc1cc(C(=O)NC)c2nccc(N3CCc4c(cc(Cn5ccnc5)cc4-c4cn(C)nc4C(F)(F)F)C3=O)c2c1 — serum HDL level (Sprague Dawley rats; oral, 100 mg/kg twice daily, 7 days): 1.1 ± 0.24 mmol/L
O=C(O)CCC(=O)c1ccc(S(=O)(=O)N2CCCC2)cc1 — Kd (USP13 ZnF-UBD domain): > 1000 µM
